Published values from different studies.
Each numbered part is a random draw from the data of one study; scales do not carry over between parts. Positions count from the first letter of the parent shown.

Series 1
Target: CCNF, cyclin fold, Cln2 fusion (human)
Technique: yeast growth competition, sequencing
Matrix: yeast
Notes: strong parent motif
Baseline: not given
Direction: higher = stronger binding
Parent: CDKN1B docking peptide (human); PSACRNLFGPVDH
For `S2Q`, “normalised enrichment score” read 7.06.
Under “normalised enrichment score”, `R5D` is recorded as -0.278.
`C4D` — result for “normalised enrichment score”: -0.304.
`H13R` — result for “normalised enrichment score”: 7.79.
`H13N`: “normalised enrichment score” 6.92.
`P1S` — result for “normalised enrichment score”: 6.2.
Under “normalised enrichment score”, `P1G` is recorded as 5.89.
For `F8E`, “normalised enrichment score” read 0.0883.
`G9Y` — result for “normalised enrichment score”: 5.75.
`S2Y` — result for “normalised enrichment score”: 5.81.
For `R5V`, “normalised enrichment score” read 0.864.
`P10Y`: “normalised enrichment score” 8.61.
`H13V`: “normalised enrichment score” 6.88.
Under “normalised enrichment score”, `P10Q` is recorded as 6.44.
Under “normalised enrichment score”, `V11S` is recorded as 7.21.
Under “normalised enrichment score”, `R5G` is recorded as -0.349.
For `P10D`, “normalised enrichment score” read 6.78.

Series 2
Target: CEBPD, bZIP domain (human)
Technique: DHFR protein complementation
Matrix: yeast
Notes: single substitutions, most at no-binding floor
Baseline: wild-type JUN-FOS pair
Direction: higher = stronger binding
Parent: JUN, bZIP domain (human); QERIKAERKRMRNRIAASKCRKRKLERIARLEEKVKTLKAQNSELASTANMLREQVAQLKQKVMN; partner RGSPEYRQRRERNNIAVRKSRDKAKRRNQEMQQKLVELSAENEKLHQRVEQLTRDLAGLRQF
`S47C` gave a binding fitness of -1.32 natural log.
`K36V` gave a binding fitness of -1.4 natural log.
With `A40E` the binding fitness was -1.29 natural log.
`S47M` has a binding fitness of -1.31 natural log.
With `K36L` the binding fitness was -1.28 natural log.
The binding fitness of `L52T` is reported as -1.45 natural log.
With `Q41R` the binding fitness was -1.37 natural log.
For `I28R`, the binding fitness was -1.3 natural log.
The binding fitness of `L45E` is reported as -1.49 natural log.
`V35R` has a binding fitness of -1.49 natural log.
With `L38T` the binding fitness was -1.5 natural log.
`S43L` has a binding fitness of -1.27 natural log.
The binding fitness of `A46I` is reported as -1.34 natural log.
For `A40Y`, the binding fitness was -1.44 natural log.
The binding fitness of `E33F` is reported as -1.45 natural log.

Series 3
Target: Fragile X messenger ribonucleoprotein 1, C-terminal low-complexity region (Fmr1, Mus musculus, UniProt P35922)
Technique: RNA Bind-n-Seq
Molecule type: RNA
Matrix: in vitro
Concentration: 200 nM
Notes: whole 134-nt RNA, ends assumed
Together with: 150 mM KCl
Baseline: input library
Direction: higher = stronger binding
For `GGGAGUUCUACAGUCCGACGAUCUCCUGUGCUACACAUCGUAUGUACCGAAUCGGGUUUUUGGGAAAAAAAGGGUUUUUGGGAAAGUAUUAUGUUACGCCGUUCGGAUCUGCAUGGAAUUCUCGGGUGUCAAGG`, the log2 enrichment was -0.282.
With `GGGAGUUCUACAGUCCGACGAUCAGUCCUGUGCUACACAUCGUAUGUACCGAAUCGGAAAAAGGAAAAAGGGGAAAAAGGGAAAGUAUUAUGUUACGCCGUUCGGAUCUGCACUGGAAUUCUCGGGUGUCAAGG` the log2 enrichment was -0.549.
For `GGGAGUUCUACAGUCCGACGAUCUGGCCCUGGUGGCAUGCGGGGAGGAAGAGGUGGCCUCAUGGAUCGUGGUGGUCUCGGUGGAAUGUUCAGAGGUGGCCGUGGUGGAGACAGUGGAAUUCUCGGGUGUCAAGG`, the log2 enrichment was 0.191.
For `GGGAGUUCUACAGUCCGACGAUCUGAAUCCUUCCUUGAUGAUGAAGAGGUAUGUCAACAAGGGUAAUAAUUUGUUUUCUUCUGAUUACUCUCAUAUUUUUAUUAUCUUUUAUUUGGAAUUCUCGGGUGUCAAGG`, the log2 enrichment was -1.05.
With `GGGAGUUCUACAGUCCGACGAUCAAGUCCUGUGCUACACAUCGUAUGUACCGAAUCGGAAAGGAAAAAAAGGUUUUUGGAAAGUAUUAUGUUACGCCGUUCGGAUCUGCACUUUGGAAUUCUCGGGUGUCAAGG` the log2 enrichment was -1.25.
`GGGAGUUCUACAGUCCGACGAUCCAAGUCCUGUGCUACACAUCGUAUGUACCGAAUCGGGGCCCGGGGCCCGGCCCGGGAAAGUAUUAUGUUACGCCGUUCGGAUCUGCACUUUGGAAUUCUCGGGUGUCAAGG` has a log2 enrichment of -0.549.
With `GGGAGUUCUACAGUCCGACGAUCCCUCAAGUCCUGUGCUACACAUCGUAUGUACCGAAUCGGGGAGGGAGGGAGGAAAGUAUUAUGUUACGCCGUUCGGAUCUGCACUUCCAGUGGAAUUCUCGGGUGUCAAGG` the log2 enrichment was 1.2.
For `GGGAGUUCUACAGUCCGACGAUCAGUCCUGUGCUACACAUCGUAUGUACCGAAUCGGGGUUUUGGUUUUGGGGUUUUGGGGAAAGUAUUAUGUUACGCCGUUCGGAUCUGCACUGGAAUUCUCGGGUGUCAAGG`, the log2 enrichment was 0.45.
For `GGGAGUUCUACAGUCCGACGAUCCCUGUGCUACACAUCGUAUGUACCGAAUCGGAAAAAAAGGGGAAAAAAAGGAAAAAAAGGAAAGUAUUAUGUUACGCCGUUCGGAUCUGCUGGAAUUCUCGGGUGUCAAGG`, the log2 enrichment was -0.566.
For `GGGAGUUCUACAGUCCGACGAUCAGUCCUGUGCUACACAUCGUAUGUACCGAAUCGGGAAAAAAAGGGAAAGGGUUUGGGAAAGUAUUAUGUUACGCCGUUCGGAUCUGCACUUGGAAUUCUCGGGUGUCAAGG`, the log2 enrichment was -0.0628.

Series 4
Target: Sal-like protein 4, full length isoform A (SALL4, Homo sapiens, UniProt Q9UJQ4, residues 1-1053)
Chain of UniProt Q9UJQ4 (whole entry, looked up): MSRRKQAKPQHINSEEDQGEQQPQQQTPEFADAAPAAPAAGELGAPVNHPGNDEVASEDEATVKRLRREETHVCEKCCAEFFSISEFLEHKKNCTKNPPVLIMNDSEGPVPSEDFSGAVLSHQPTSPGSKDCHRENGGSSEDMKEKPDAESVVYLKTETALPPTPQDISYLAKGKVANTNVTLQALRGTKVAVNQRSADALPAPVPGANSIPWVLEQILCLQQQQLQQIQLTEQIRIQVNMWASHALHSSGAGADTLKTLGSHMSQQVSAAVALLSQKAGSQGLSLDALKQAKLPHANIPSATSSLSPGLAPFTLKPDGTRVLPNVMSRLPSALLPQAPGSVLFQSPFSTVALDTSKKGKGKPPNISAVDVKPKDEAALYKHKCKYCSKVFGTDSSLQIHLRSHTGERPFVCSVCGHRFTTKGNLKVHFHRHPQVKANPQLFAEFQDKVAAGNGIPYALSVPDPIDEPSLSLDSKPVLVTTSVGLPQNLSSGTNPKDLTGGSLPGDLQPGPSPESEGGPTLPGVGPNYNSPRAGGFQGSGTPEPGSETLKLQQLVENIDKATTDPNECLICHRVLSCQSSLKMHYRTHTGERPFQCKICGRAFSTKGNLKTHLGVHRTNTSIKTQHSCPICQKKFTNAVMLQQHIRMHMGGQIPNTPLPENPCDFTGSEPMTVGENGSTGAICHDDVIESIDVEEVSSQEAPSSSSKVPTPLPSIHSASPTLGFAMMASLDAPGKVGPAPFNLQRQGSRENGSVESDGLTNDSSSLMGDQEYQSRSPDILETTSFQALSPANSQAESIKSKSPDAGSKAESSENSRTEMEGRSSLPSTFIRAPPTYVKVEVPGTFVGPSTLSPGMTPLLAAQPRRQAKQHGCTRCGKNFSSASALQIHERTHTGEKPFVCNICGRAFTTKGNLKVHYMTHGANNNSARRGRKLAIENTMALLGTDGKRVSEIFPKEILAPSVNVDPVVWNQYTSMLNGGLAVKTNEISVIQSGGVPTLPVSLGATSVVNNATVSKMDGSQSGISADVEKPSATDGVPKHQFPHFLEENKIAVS
Technique: universal PBM
Molecule type: double-stranded DNA, one strand shown
Matrix: in vitro
Concentration: 600 nM
Notes: 8-mer, flanks averaged, mean of replicates
Direction: higher = stronger binding
`ACCCTGGA` gave an E-score of -0.156.
With `ACAGAAGC` the E-score was 0.0404.
With `GCTTTTCA` the E-score was 0.0615.
The E-score of `ATACGCAG` is reported as 0.00103.
`ACGCGGGG` has an E-score of -0.267.
With `ATGCGAAG` the E-score was 0.152.
The E-score of `CAAGTACG` is reported as -0.0285.
With `AGCCTGTG` the E-score was -0.183.
For `ATTGTCCG`, the E-score was 0.0574.
`GTTTATAA` gave an E-score of 0.36.
For `GCACGTTA`, the E-score was -0.0255.
`TCAATGCA` has an E-score of 0.152.
`CACGATTA` has an E-score of 0.111.
`ATGACAAA` has an E-score of 0.26.
The E-score of `CACCAGGC` is reported as -0.351.
The E-score of `AAGCTCCG` is reported as -0.185.
For `CATGTTTC`, the E-score was 0.16.
The E-score of `GGTACTCA` is reported as -0.00905.
With `AGGGGCTG` the E-score was -0.218.
With `TCCTTCAA` the E-score was 0.191.
The E-score of `AGTATCTC` is reported as 0.0174.
`CGTGTCGA` gave an E-score of -0.18.
For `ACAGGCCG`, the E-score was -0.255.
For `AGGGAGGG`, the E-score was -0.249.
With `ATGAAAGG` the E-score was 0.153.

Mixed results
For `PhoQ, residues 284 288 289 292 302 303 SSYNSA`, the fold induction was 1.78 (PhoP, residues 12 14 15 18 19 LQHIR (Escherichia coli, UniProt P23836); Sort-seq, refers to: YFP reporter; E. coli; PhoQ-PhoP variant library, together with: 10 µM Mg2+; baseline: high Mg2+ state, higher = stronger signaling).

A few entries again (series 4):
`ACGCGGGG` has an E-score of -0.267.
`CGTGTCGA` gave an E-score of -0.18.
`GTTTATAA` gave an E-score of 0.36.
For `AGGGAGGG`, the E-score was -0.249.
For `CATGTTTC`, the E-score was 0.16.
With `ATGAAAGG` the E-score was 0.153.
For `ACAGGCCG`, the E-score was -0.255.
